Measured values of several laboratories.
Each numbered part is a random draw from the data of one study; scales do not carry over between parts.
Chain of UniProt Q16620 (whole entry, looked up): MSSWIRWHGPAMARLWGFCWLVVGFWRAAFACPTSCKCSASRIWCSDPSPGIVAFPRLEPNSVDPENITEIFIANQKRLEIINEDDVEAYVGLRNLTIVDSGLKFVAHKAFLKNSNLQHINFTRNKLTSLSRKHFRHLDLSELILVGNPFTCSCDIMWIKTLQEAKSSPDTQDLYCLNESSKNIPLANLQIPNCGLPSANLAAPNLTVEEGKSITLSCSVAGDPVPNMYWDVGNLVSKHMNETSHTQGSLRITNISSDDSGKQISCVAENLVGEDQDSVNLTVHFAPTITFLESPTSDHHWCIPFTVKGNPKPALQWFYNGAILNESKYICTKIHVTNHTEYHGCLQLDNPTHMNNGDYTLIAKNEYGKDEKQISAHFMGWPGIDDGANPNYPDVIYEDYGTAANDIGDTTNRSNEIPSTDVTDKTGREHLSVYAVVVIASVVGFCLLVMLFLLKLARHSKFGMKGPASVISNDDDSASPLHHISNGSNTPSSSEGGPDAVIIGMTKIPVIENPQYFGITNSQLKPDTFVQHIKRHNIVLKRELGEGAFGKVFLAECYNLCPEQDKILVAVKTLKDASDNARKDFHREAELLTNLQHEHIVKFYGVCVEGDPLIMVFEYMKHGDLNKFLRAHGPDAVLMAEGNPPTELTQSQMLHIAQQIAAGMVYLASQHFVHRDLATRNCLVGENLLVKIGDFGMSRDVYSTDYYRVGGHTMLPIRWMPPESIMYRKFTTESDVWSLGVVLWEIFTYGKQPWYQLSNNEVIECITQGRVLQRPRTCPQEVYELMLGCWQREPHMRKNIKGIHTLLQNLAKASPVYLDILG
Chain of UniProt O00329 (whole entry, looked up): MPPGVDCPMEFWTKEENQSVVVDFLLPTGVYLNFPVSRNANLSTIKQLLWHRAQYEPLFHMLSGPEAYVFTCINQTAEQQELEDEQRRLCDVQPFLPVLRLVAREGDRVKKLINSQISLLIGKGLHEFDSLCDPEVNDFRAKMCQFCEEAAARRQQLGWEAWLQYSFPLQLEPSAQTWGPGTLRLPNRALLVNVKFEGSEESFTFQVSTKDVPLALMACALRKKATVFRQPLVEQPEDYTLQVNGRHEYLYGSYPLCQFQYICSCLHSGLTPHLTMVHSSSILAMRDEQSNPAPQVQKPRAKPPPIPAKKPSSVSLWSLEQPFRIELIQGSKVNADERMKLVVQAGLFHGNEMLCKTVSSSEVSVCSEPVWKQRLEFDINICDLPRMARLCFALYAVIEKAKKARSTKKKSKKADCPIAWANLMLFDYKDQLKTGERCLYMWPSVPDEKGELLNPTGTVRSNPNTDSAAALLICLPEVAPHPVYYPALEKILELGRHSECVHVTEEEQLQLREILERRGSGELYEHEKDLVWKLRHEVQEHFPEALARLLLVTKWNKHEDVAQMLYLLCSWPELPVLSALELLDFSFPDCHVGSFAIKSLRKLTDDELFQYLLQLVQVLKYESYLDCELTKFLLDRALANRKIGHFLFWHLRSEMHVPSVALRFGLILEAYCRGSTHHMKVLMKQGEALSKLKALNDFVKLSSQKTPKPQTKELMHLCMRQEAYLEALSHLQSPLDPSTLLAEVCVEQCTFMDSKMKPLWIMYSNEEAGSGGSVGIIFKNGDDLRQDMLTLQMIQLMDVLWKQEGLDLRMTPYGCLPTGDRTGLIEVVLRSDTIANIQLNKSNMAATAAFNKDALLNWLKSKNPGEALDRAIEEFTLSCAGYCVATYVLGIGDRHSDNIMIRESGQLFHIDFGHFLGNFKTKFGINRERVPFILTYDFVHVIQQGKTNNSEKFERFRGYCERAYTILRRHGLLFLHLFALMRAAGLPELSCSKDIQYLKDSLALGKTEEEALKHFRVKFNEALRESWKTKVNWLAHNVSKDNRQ
Chain of UniProt Q13882 (whole entry, looked up): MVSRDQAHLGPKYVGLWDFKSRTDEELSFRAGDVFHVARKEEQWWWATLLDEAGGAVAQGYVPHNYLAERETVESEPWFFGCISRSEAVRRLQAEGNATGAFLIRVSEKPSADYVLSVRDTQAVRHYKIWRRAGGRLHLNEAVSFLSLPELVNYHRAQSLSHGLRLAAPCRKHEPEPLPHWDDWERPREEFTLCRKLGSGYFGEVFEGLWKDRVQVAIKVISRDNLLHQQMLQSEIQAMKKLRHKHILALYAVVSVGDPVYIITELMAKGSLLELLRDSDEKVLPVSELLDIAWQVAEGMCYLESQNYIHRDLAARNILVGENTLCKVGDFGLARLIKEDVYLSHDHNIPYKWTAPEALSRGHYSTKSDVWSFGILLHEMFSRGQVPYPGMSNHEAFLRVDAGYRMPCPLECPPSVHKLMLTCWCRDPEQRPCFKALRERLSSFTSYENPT
Chain of UniProt Q13237 (whole entry, looked up): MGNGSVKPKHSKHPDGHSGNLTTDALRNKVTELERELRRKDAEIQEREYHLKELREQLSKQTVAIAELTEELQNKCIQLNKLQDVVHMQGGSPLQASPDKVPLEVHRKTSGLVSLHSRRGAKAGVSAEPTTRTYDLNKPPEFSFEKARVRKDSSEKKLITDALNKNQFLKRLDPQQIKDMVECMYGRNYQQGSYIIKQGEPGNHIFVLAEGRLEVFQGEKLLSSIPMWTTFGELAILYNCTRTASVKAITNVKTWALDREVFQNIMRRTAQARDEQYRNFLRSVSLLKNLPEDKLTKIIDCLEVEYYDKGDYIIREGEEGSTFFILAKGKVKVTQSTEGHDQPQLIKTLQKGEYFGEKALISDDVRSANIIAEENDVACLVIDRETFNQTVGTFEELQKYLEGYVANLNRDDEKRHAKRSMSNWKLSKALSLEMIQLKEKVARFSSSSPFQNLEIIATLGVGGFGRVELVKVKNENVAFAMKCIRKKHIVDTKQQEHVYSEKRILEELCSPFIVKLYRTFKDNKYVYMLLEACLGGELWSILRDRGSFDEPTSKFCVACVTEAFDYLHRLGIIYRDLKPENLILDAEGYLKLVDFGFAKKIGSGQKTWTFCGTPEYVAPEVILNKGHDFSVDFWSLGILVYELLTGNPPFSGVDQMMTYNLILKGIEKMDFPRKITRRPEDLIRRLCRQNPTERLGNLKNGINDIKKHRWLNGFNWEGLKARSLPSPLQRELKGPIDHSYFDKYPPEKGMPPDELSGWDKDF
Chain of UniProt Q96Q40 (whole entry, looked up): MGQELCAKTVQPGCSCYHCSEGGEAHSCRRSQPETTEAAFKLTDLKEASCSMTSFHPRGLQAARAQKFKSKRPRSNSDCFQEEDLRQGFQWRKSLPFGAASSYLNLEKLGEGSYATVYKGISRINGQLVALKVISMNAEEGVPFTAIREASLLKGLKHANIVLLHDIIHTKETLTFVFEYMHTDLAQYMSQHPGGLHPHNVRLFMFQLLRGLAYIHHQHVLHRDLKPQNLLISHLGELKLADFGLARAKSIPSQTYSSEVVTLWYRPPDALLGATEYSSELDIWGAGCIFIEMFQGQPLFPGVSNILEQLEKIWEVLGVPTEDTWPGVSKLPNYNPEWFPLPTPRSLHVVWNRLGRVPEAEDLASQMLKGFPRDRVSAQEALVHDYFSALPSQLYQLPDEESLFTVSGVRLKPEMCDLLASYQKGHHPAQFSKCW
Chain of UniProt P11802 (whole entry, looked up): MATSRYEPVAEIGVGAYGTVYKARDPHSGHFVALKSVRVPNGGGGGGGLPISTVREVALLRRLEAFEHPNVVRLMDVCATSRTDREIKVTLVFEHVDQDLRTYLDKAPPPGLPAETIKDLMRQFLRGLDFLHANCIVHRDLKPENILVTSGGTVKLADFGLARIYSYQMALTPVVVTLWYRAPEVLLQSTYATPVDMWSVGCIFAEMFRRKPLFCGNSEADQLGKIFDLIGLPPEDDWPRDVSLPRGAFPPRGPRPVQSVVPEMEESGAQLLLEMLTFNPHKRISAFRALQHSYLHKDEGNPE
Chain of UniProt O15264 (whole entry, looked up): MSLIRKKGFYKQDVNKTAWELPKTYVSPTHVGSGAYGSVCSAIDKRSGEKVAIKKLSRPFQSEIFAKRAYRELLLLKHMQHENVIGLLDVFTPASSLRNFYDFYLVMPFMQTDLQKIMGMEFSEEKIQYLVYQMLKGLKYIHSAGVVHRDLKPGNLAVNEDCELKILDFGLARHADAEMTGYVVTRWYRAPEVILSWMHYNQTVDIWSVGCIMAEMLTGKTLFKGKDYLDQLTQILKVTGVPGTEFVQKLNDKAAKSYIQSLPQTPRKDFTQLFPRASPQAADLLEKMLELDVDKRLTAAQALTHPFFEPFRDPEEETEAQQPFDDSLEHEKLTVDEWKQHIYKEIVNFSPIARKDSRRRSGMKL

Study 1
Target: Prothrombin, mature alpha-thrombin (F2, Homo sapiens, UniProt P00734)
Method: aptamer microarray, sandwich
Molecule type: DNA with 2'F-ANA
Matrix: in vitro
Tested at: 200 nM
Notes: whole 15-mer aptamer, many near background
Added: Cy3 exosite-II aptamer, 400 nM
Reading: higher = stronger binding
Strand: GGTTGGTGTGGTTGG
| Modification | mean fluorescence intensity |
| --- | --- |
| 2'F-ANA at 1 3 4 5 6 7 8 10 11 12 13 15 | 52 a.u. |
| 2'F-ANA at 2 3 6 8 11 14 | 362 a.u. |
| 2'F-ANA at 4 5 12 13 14 | 50.5 a.u. |
| 2'F-ANA at 1 3 10 13 15 | 170 a.u. |
| 2'F-ANA at 2 3 4 14 | 363 a.u. |
| 2'F-ANA at 3 5 7 8 10 12 14 15 | 70.8 a.u. |
| 2'F-ANA at 1 2 3 4 5 6 8 13 14 | 50.4 a.u. |
| 2'F-ANA at 3 4 7 8 9 10 14 15 | 242 a.u. |

Study 2
Target: NT-3 growth factor receptor (NTRK3, Homo sapiens, UniProt Q16288)
Chain of UniProt Q16288 (whole entry, looked up): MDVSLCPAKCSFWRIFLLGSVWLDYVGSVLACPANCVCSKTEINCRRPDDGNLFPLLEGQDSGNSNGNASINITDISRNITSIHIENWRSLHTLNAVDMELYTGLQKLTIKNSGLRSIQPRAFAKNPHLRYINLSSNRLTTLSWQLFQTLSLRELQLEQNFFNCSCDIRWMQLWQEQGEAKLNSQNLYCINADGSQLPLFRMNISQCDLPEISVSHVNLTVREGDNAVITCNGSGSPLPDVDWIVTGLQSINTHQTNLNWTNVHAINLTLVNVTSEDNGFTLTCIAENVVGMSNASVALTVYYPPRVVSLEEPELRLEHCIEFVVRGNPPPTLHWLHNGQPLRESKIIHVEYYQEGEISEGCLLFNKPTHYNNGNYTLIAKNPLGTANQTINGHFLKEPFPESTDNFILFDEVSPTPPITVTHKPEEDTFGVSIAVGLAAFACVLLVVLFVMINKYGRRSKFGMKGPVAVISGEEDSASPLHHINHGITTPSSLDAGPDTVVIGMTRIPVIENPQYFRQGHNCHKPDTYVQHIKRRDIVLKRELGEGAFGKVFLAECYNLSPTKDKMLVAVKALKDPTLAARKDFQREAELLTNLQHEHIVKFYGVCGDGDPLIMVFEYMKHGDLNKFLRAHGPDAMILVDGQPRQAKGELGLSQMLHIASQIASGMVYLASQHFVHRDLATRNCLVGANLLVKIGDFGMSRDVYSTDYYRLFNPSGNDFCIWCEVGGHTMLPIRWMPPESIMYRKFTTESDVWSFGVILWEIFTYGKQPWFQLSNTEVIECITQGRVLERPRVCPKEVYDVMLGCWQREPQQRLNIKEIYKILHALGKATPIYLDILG
Observed: enzyme activity
Action: inhibitor
Tested at: 0.5 µM
Baseline: control
| Compound | remaining activity |
| --- | --- |
| CCN(CC)C(=O)c1ccc(Nc2nc(OCC3CCCCC3)c3[nH]cnc3n2)cc1 | 32.3% |
| Cc1nc2cc3nc(-c4cccs4)cnc3cc2n1C | 59.9% |
| O=c1cc(-c2cccc3c2Sc2ccccc2S3)oc(N2CCOCC2)c1 | 99.7% |
| COc1cc2c(cc1OC)-c1[nH]nc(Nc3cccc(F)c3)c1C2 | 72.6% |
| CN([C@@H](Cc1ccc(OS(=O)(=O)c2cccc3cnccc23)cc1)C(=O)N1CCN(c2ccccc2)CC1)S(=O)(=O)c1cccc2cnccc12 | 97.5% |
| O=C(Nc1cccc(Nc2nccc(Nc3cccc(C(F)(F)F)c3)n2)c1)C1CC1 | 77.3% |
| CCOc1nc(NC(=O)Cc2cc(OC)ccc2OC)cc(N)c1C#N | 102% |
| c1ccc(-c2cnc(Nc3ccc(OCCN4CCCC4)cc3)s2)cc1 | 22.6% |
| COc1cc2ncnc(Nc3cccc(Cl)c3)c2cc1OC | 86.3% |
| CCN(CC)CCNC(=O)c1c(C)[nH]c(/C=C2\C(=O)Nc3ccc(Cl)cc32)c1C | 1.87% |
| Cn1nc2c3c(cccc31)C(=O)c1ccccc1-2 | 71.6% |
| O=C1C(Cl)=C(N2C(=O)CCC2=O)C(=O)c2ccccc21 | 98.6% |
| c1ccc(-c2[nH]ncc2-c2ccnc3ccccc23)nc1 | 92.7% |
| Ic1cccc(CSc2nnc(-c3ccncc3)o2)c1 | 104% |
| O=C1c2ccccc2-c2n[nH]c3cccc1c23 | 27.3% |
| CN(C)C[C@H]1CCn2c(c(C3=C(c4cn(C)c5ccccc45)C(=O)NC3=O)c3ccccc32)C1 | 75% |
| Cc1cc2ncc(-c3ccccc3)nc2cc1C | 88.2% |
| N#C/C(=C\c1ccc(O)c(O)c1)C(=O)NCc1ccccc1 | 98.8% |
| COc1cc2ncnc(Nc3ccc(O)c(Br)c3)c2cc1OC | 83.4% |
| Nc1cccc(-c2cc3c(Oc4cccc(O)c4)ncnc3[nH]2)c1 | 63.3% |

Study 3
Structure (SMILES): Cc1c(C(=O)O)cc(-c2ccc(C3CCNCC3)cc2)c2ccc(-c3ccc(C(F)(F)F)cc3)cc12
Method: competition with immobilised ligand
Tested at: 1 µM
| target | test | remaining binding |
| --- | --- | --- |
| IRAK1 (Homo sapiens, UniProt P51617) | binding | 100% |
| NTRK2 (Homo sapiens, UniProt Q16620) | cell-free assay | 100% |
| Tyrosine-protein kinase ABL1, non-phosphorylated (ABL1, Homo sapiens, UniProt P00519, T315I) | binding | 82% |
| PIK3C2B (Homo sapiens, UniProt O00750) | cell-free assay | 100% |
| Cyclin-dependent kinase 4, with cyclin D3 (CDK4, Homo sapiens, UniProt P11802) | binding | 100% |
| MAPK13 (Homo sapiens, UniProt O15264) | binding | 96% |
| PRKG2 (Homo sapiens, UniProt Q13237) | binding | 71% |
| CDK15 (Homo sapiens, UniProt Q96Q40) | binding | 100% |
| PIK3CD (Homo sapiens, UniProt O00329) | cell-free assay | 100% |
| MAP3K19 (Homo sapiens, UniProt Q56UN5) | binding | 100% |
| PTK6 (Homo sapiens, UniProt Q13882) | binding | 100% |
| PIKFYVE (Homo sapiens, UniProt Q9Y2I7) | cell-free assay | 100% |
| MAP3K14 (Homo sapiens, UniProt Q99558) | binding | 100% |
| Tyrosine-protein kinase ABL1, phosphorylated (ABL1, Homo sapiens, UniProt P00519, H396P) | binding | 99% |

Study 4
Target: Histone acetyltransferase KAT6A, winged helix 1, GST fusion (KAT6A, Homo sapiens, UniProt Q92794, residues 1-85)
Method: protein binding microarray
Molecule type: double-stranded DNA, one strand shown
Matrix: in vitro
Tested at: not given
Notes: 8-mer, flanks averaged, mean of 2 arrays, mostly near background
Baseline: not given
Reading: higher = stronger binding
Construct (chain): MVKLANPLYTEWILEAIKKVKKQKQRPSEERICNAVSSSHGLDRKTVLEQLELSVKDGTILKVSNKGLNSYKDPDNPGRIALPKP
| Strand | E-score |
| --- | --- |
| CTCATACA | -0.123 |
| GACCCCCA | -0.229 |
| GACATCAC | 0.101 |
| AGTCCAGG | -0.233 |
| AATAATAC | -0.135 |
| GGAAGCCC | 0.0899 |
| ATTAAGCA | -0.169 |
| GCTAACCA | -0.168 |

Excerpt of the above (study 1):
| Modification | mean fluorescence intensity |
| --- | --- |
| 2'F-ANA at 2 3 6 8 11 14 | 362 a.u. |
| 2'F-ANA at 4 5 12 13 14 | 50.5 a.u. |
| 2'F-ANA at 1 3 10 13 15 | 170 a.u. |
